# Assay results pooled from the literature.
# Compare with care: the assays were run in different laboratories. ± marks the error that the study gave.
# Rhomboid protease AarA: Rhomboid protease AarA (Providencia stuartii, UniProt P46116)
# Sequence of UniProt P46116 (whole entry, looked up): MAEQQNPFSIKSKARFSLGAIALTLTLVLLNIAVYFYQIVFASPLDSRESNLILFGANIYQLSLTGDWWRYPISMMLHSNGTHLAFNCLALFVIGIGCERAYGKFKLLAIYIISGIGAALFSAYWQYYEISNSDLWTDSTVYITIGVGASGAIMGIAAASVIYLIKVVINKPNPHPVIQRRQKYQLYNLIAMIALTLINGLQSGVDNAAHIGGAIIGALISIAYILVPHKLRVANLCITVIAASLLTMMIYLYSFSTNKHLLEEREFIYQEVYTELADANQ
# PPARG: Peroxisome proliferator-activated receptor gamma (PPARG, Homo sapiens, UniProt P37231)
# Sequence of UniProt P37231 (whole entry, looked up): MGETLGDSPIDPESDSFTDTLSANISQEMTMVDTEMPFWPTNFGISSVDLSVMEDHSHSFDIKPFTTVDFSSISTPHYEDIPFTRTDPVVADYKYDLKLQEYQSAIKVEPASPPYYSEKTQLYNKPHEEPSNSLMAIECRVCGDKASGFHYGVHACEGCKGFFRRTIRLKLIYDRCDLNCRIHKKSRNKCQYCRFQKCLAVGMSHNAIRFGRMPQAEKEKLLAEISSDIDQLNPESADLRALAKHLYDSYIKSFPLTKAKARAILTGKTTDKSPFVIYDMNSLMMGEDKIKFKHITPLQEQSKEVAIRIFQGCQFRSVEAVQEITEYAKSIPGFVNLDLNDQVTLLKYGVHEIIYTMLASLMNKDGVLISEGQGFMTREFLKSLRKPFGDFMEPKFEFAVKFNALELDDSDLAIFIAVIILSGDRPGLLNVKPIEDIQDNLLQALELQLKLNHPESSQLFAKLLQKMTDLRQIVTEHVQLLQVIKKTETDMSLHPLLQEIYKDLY
# PPARG ligand-binding domain: Peroxisome proliferator-activated receptor gamma, ligand-binding domain (PPARG, Homo sapiens, UniProt P37231)
# Sequence of UniProt P28065 (whole entry, looked up): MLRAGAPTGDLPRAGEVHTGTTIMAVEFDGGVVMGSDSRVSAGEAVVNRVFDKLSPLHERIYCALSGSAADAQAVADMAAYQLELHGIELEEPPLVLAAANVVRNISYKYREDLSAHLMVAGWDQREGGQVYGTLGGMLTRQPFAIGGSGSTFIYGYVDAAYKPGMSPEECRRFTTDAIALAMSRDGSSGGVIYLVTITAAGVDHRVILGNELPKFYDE
# Sequence of UniProt P43358 (whole entry, looked up): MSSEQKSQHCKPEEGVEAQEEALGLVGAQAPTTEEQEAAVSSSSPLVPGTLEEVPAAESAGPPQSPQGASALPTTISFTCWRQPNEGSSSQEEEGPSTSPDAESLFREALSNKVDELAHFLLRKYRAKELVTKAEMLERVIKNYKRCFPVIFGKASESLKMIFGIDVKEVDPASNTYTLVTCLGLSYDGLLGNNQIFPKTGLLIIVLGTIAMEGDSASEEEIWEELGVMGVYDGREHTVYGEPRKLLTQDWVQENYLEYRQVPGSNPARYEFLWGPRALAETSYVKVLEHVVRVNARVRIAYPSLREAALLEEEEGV
# Sequence of UniProt P40306 (whole entry, looked up): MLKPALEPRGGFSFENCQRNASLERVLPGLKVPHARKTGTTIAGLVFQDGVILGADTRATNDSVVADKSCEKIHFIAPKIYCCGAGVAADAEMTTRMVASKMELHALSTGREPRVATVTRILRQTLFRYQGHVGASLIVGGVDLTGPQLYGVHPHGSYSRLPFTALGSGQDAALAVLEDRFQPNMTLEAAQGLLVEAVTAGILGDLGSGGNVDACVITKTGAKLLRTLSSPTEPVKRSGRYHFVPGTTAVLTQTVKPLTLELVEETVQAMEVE
# Sequence of UniProt P08173 (whole entry, looked up): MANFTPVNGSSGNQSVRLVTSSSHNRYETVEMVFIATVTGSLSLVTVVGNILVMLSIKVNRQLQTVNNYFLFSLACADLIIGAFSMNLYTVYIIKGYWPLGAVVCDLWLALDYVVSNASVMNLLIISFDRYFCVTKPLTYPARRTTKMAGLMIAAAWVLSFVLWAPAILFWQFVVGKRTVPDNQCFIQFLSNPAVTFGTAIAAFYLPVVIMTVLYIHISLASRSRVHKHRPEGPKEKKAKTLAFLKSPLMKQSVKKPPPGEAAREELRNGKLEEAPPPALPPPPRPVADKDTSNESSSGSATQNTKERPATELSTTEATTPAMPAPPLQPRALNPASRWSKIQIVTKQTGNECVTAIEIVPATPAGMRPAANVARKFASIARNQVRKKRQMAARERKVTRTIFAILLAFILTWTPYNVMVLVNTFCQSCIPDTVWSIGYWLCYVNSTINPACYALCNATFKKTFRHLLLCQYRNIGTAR
# Sequence of UniProt P07550 (whole entry, looked up): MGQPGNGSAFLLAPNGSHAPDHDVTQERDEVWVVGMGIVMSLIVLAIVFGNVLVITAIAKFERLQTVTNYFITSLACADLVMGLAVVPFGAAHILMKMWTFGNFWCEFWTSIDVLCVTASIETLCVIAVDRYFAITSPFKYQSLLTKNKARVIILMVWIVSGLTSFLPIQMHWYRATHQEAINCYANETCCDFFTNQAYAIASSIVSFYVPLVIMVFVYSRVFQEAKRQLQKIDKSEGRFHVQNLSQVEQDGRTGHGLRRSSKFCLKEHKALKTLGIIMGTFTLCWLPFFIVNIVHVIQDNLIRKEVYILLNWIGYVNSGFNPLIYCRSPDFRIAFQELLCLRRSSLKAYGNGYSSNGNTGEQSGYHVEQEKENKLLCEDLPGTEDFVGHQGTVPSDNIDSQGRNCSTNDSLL
# Sequence of UniProt Q13547 (whole entry, looked up): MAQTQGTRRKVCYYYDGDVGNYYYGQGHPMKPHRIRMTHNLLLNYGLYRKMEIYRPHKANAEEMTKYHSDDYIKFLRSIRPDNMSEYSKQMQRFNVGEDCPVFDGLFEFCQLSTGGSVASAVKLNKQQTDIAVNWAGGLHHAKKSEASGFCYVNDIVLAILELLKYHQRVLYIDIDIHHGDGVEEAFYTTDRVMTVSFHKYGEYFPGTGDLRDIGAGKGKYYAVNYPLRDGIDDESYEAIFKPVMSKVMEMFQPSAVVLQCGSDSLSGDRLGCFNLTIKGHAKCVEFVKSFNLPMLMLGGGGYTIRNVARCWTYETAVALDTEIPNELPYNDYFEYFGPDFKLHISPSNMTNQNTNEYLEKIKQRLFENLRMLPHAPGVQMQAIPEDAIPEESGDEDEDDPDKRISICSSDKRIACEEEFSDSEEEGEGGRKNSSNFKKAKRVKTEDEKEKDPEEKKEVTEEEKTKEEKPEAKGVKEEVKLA
SMILES,target,assay,test system,conditions,IC50 [µM]
CN(Cc1ccccc1)C(=O)c1ccccc1NC(=O)C(C(F)(F)F)C(F)(F)F,Rhomboid protease AarA,"enzyme activity, inhibitor, fluorescence",,,5.4
Nc1ncnc2c1c(-c1ccc(Oc3ccccc3)cc1)nn2C1CCCC1,"HCK (Homo sapiens, UniProt P08631, K245P/K248P)",ligand displacement in cells,,,0.044
CC[C@H](C)[C@@H]1NC(=O)[C@H](Cc2ccc(O)cc2)NC(=O)CSC[C@@H](C(N)=O)NC(=O)[C@H](CC(N)=O)NC(=O)[C@H](Cc2c[nH]cn2)NC(=O)[C@H](Cc2ccc(O)cc2)NC(=O)[C@H](CC(=O)O)NC(=O)[C@H](Cc2ccccc2)NC(=O)[C@H](CC(C)C)NC(=O)[C@H](CCCNC(=N)N)NC1=O,"Melanoma-associated antigen 4, MAGE homology domain (Homo sapiens, UniProt P43358)","binding, inhibitor, TR-FRET displacement",,together with: Alexa647-MTP-1,0.0174 ± 0.0027
Cc1c(Cc2ccc(Cl)c(O[C@H](C)C(=O)O)c2)c2ccc(C(=O)N[C@@H](C)c3ccc(C(C)(C)C)cc3)cc2n1CC(C)C,PPARG,"ligand displacement, TR-FRET",,,0.00043
COC(=O)CCCNC(=O)Cc1ccc(Nc2ncc(F)c(-c3cc(F)c4nc(C)n(C(C)C)c4c3)n2)cc1,"HDAC1 (Homo sapiens, UniProt Q13547)","enzyme activity, inhibitor",,,> 1
Fc1ccc(Nc2nc(NC3CCCCC3)c3ccccc3n2)cc1F,"ADRB2 (Homo sapiens, UniProt P07550)","cAMP production, antagonist, GloSensor",,together with: isoproterenol 1 µM,> 50
O=C1CC(c2ccc(Br)cc2)N1S(=O)(=O)c1cccc(Cl)c1 (stereo not shown),Rhomboid protease AarA,"enzyme activity, inhibitor",,,107
CN1CCC[C@@H]1C(=O)N[C@@H](Cc1ccc(-c2ccccc2)cc1)B(O)O,"Proteasome subunit beta type-9 / Proteasome subunit beta type-10 (Homo sapiens, UniProt P28065+P40306)","β1i activity, inhibitor",,"immunoproteasome, together with: Ac-PAL-AMC",> 10
Cc1c(Cc2ccc(OC(C)C(=O)O)cc2Cl)c2ccc(C(=O)NC(C)c3ccc(C(C)(C)C)cc3)cc2n1C (stereo not shown),PPARG ligand-binding domain,"reporter gene, luciferase reporter","HEK293T, Gal4-PPARγ LBD",,35.1
O=C(CCNC(=O)CNC(=O)CC(c1ccccc1)(c1ccccc1)c1ccccc1)NC[C@@H]1CCCN(C[C@H]2C[C@H](F)C2)C1,"CHRM4 (Homo sapiens, UniProt P08173)","ligand displacement, radioligand",,cell membranes,> 30
Cc1c(Cc2ccc(Cl)c(OC(C)C(=O)O)c2)c2ccc(C(=O)NC(C)c3ccc(C(C)(C)C)cc3)cc2n1CC1CCC1 (stereo not shown),PPARG,"ligand displacement, TR-FRET",,,0.00066
O=C(Nc1ccc(Oc2ccccc2)cc1)C(C(F)(F)F)C(F)(F)F,Rhomboid protease AarA,"enzyme activity, inhibitor, fluorescence",,,8
Cc1c(Cc2ccc(OC(C)(C)C(=O)O)cc2)c2ccc(C(=O)N[C@@H](C)c3cccc(C(F)(F)F)c3)cc2n1C,PPARG ligand-binding domain,"reporter gene, luciferase reporter","HEK293T, Gal4-PPARγ LBD",,1.78
[N-]=[N+]=N[C@]1(COP(=O)(O)OP(=O)(O)OP(=O)(O)O)O[C@@H](n2ccc(N)nc2=O)[C@@H](F)[C@@H]1O,"Gag-Pol polyprotein, reverse transcriptase (gag-pol, Human immunodeficiency virus type 1 group M subtype B, UniProt P04585)","reverse transcriptase activity, inhibitor",,"RNA template, together with: dCTP 1 µM",5.3
Cc1c(Cc2cccc(OC(C)(C)C(=O)O)c2)c2ccc(C(=O)N[C@H](C)c3cccc(C(C)(C)C)c3)cc2n1C,PPARG ligand-binding domain,"reporter gene, luciferase reporter","HEK293T, Gal4-PPARγ LBD",,43.5
O=C(NCC1CC1)c1ccc(NC(=O)C(C(F)(F)F)C(F)(F)F)cc1,Rhomboid protease AarA,"enzyme activity, inhibitor, fluorescence",,,19

# Repeated from above:
SMILES,target,assay,test system,conditions,IC50 [µM]
Cc1c(Cc2ccc(Cl)c(O[C@H](C)C(=O)O)c2)c2ccc(C(=O)N[C@@H](C)c3ccc(C(C)(C)C)cc3)cc2n1CC(C)C,PPARG,"ligand displacement, TR-FRET",,,0.00043
